Measurements collected from several papers.
Each numbered part is a random draw from the data of one study; scales do not carry over between parts. Positions count from the first letter of the parent shown.

Series 1 — target: TEF, bZIP domain (human); technique: DHFR protein complementation; matrix: yeast; baseline: wild-type JUN-FOS pair; direction: higher = stronger binding
Notes: single substitutions, most at no-binding floor
Starting sequence: JUN, bZIP domain (human); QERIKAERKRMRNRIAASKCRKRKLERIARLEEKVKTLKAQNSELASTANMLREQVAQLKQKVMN; partner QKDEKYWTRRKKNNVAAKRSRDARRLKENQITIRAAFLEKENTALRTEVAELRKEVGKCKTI
Variant	binding fitness
E33F	-1.25 natural log
K39V	-1.45 natural log
L38I	-1.49 natural log
T48Q	-1.43 natural log
N42M	-1.42 natural log
E54C	-1.45 natural log
T37A	-1.25 natural log
A40V	-1.52 natural log
S43R	-1.44 natural log
Q55I	-1.36 natural log
A40W	-1.47 natural log
N42A	-1.5 natural log
E44V	-1.36 natural log
S43M	-1.47 natural log
I28G	-1.43 natural log
I28V	-1.51 natural log
R30G	-1.39 natural log
R53C	-1.43 natural log
S43K	-1.24 natural log
T48H	-1.41 natural log
A57L	-1.26 natural log
L38R	-1.47 natural log
S43E	-1.37 natural log
M51R	-1.28 natural log
S43N	-1.45 natural log

Series 2 — technique: RNA Bind-n-Seq; form: RNA; matrix: in vitro; tested at: 365 nM; baseline: no-protein control; direction: higher = stronger binding
Target: RNA binding protein fox-1 homolog 2, RRM domain, GST-SBP tag (RBFOX2, Homo sapiens, UniProt O43251-10, residues 100-194)
Notes: natural RNA segment, single round, ends assumed
Target sequence (chain): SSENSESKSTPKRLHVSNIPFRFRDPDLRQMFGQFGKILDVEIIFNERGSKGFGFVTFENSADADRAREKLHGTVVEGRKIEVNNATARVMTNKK
Sequence	RBNS enrichment (R)
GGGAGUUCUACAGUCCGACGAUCACGUACAAAACUCUGUAUAAGUUGAAGGAAAAUGUUCAUGUUCAUAUGUACUUGUUUGCUAUGACUACAUUUUGAGGUUUUGUAAAACUGUUAUUUUUUUUUUUUUCACAUGGAAUUCUCGGGUGCCAA	1.02
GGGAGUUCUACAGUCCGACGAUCAUUUUUCUUGCAUUAGGGCACAGUGUUAAAUUUUUUGGAGGUAAAUAUACUAUUUAUAAUCACUAUAUAUAGUAGGAGGGGGUAUGUGUCUCAGGCUUUUCUGAAGUUGCUGGAAUUCUCGGGUGCCAA	1.62
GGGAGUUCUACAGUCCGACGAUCCAGCCUUCUCUUGGGAACAGCCGGGGCCAGGACUGGGUCACCUAUGAGCUGAAUCAGCAUCUCCUCCUGAGUCCCAGGGCCCCUGCAGUUCCCAGUCUCUUCUGUCCUGCUGGAAUUCUCGGGUGCCAA	0.318
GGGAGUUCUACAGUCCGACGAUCUUAACCUGACCCAGCAUGGAAGGAGGUGUGGGUACCUUCUCAGAAAGUCCUUAAUUUACAGUGGCCUGUAGCCUGUGGCCGUGGCCGUGGCUGUGGCCUGCUGCCUGCUCUGGAAUUCUCGGGUGCCAA	4.03
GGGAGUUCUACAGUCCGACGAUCUCUCUGAACAUGUAUGUUGCCCAUGGUGGGAGCGUGGUCACUGUGCAGUUGUGCACAGAUGUCUUUCCUUUACCGUUGGCCUUUCUGUCUGCCUCUCCUUCCUCUCUGCAUGGAAUUCUCGGGUGCCAA	2.14
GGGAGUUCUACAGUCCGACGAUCUGCCAGUGAGACAUCGUAUCUGUGCUUAGUCACUGAAGUGAGAACAUACUCCCGCCCCAAGGGAGGCUUCUCUCCAUCAGGGUGGUACACGGGCAACAAAGUAGGGAUUUUGGAAUUCUCGGGUGCCAA	0.242
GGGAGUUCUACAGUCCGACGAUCCUGCAAUGUAGGUCUCCUUCCUGUGCAGUGUAACAUGUAUCCCGUUGCCUGUUGUUCGGUUGUGUGACUAAUUGUGGAUUUUAAGCUGCUAUUAUUGUAUUUCAGUGGCAUGGAAUUCUCGGGUGCCAA	1.8
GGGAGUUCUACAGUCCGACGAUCGUUGUUCUAUUUUGUACAGACAAGUUGGAAAAACAACAGCGACAAAAAAGUCAAGAAACUUUGUAAAAUAUCGUGUGUGUGAUUCCUUGUAAAAUAUUUUCAAAUGGUUUUGGAAUUCUCGGGUGCCAA	0.979

Series 3 — technique: RNA Bind-n-Seq; form: RNA; matrix: in vitro; tested at: 1 µM; notes: whole 134-nt RNA, ends assumed; added: 150 mM KCl; baseline: input library; direction: higher = stronger binding
Target: Ras GTPase-activating protein-binding protein 1, C-terminal RGG region (G3BP1, Homo sapiens, UniProt Q13283)
Sequence of UniProt Q13283 (whole entry, looked up): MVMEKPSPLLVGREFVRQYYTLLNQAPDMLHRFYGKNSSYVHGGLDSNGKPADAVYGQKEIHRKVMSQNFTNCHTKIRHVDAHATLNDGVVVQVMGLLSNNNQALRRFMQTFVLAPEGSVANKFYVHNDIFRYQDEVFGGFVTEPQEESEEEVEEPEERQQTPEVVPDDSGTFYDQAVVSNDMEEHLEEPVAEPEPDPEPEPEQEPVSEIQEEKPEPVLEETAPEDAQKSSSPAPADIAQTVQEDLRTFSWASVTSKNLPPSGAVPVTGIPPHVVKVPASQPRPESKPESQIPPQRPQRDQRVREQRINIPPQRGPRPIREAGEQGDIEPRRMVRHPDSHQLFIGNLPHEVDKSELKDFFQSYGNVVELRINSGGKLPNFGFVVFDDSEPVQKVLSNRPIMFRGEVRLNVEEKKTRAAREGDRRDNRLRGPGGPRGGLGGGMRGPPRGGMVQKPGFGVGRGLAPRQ
Sequence	log2 enrichment
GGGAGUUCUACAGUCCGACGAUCUGUGCUACACAUCGUAUGUACCGAAUCGGGGAAAAAAAGGGGAAAAAGGGGUUUUUUUGGGGAAAGUAUUAUGUUACGCCGUUCGGAUCUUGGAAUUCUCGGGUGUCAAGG	0.931
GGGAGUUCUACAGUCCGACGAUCCAAGUCCUGUGCUACACAUCGUAUGUACCGAAUCGGAAAGGGGAAAGGGAAAGGGGAAAGUAUUAUGUUACGCCGUUCGGAUCUGCACUUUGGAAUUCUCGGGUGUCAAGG	-0.0936
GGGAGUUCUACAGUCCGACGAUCUGGCCCUGGUGGCAUGCGGGGAGGAAGAGGUGGCCUCAUGGAUCGUGGUGGUCCCGGUGGAAUGUUCAAAGGUGGCCGUGGUGGAGACAGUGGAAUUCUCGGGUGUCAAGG	3.64
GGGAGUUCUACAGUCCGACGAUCUCCUCAAGUCCUGUGCUACACAUCGUAUGUACCGAAUCGGGAGGAGGGAGGAAAGUAUUAUGUUACGCCGUUCGGAUCUGCACUUCCAGCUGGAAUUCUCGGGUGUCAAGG	-1.1
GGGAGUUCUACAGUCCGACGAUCCUCAAGUCCUGUGCUACACAUCGUAUGUACCGAAUCGGGUUUGGGAGGGAGGGAAAGUAUUAUGUUACGCCGUUCGGAUCUGCACUUCCAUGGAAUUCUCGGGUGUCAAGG	2.14
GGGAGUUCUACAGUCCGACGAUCUGGGAGGUGGAUUUUGUAUAUUUUUUUAGCUCAUUUCCAGGGGUGGGAAUUUUUUUUUAAUAUGUGUCAUGAAUAAAGUUGUUUUUGAAAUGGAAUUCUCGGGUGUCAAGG	3.62
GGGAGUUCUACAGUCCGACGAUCGUCCUGUGCUACACAUCGUAUGUACCGAAUCGGCCCCCCGGGGCCCCCCGGCCCCCCGGAAAGUAUUAUGUUACGCCGUUCGGAUCUGCAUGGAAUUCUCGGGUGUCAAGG	-1.15
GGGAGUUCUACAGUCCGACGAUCUGGCCGGUGGCCGUGAGAACACGCUGUGUGGCUGAAAAGUGAAGGCAAGAGCUGAUUUGGCCUCUGUGCUCCCCUCCGCAAGGGGAUCGUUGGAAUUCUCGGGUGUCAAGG	-0.551
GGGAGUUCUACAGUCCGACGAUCCAAGUCCUGUGCUACACAUCGUAUGUACCGAAUCGGUGGAAAAAGGAAAAAAAGGAAAGUAUUAUGUUACGCCGUUCGGAUCUGCACUUCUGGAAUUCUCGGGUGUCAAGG	-1.33

Series 4 — target: CCND3, cyclin fold, Cln2 fusion (human); technique: yeast growth competition, sequencing; matrix: yeast; notes: weak parent motif; baseline: not given; direction: higher = stronger binding
Starting sequence: RB1 docking peptide (human); PKPLKKLRFDIEG; partner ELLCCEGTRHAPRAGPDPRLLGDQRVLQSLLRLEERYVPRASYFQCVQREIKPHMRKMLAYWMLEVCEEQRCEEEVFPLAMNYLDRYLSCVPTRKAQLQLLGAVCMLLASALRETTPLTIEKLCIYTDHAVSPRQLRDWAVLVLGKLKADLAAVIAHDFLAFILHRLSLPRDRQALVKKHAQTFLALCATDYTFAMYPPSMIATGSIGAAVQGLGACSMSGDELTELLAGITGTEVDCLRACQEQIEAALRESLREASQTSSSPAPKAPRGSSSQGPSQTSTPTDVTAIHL
Variant	normalised enrichment score
PKPLKKLRFAIEG [D10A]	0.168
PKPLKKLRFDIPG [E12P]	0.122
PKPLKKLRLDIEG [F9L]	0.0845
PKPLKKKRFDIEG [L7K]	0.209
PKPLKKLRFDIEN [G13N]	0.0628
PKALKKLRFDIEG [P3A]	0.178
PKPLKKLRFDIEV [G13V]	0.105
PKPLKKLRDDIEG [F9D]	0.149
PKPLKKLRFDITG [E12T]	0.285
PKPLKKVRFDIEG [L7V]	0.194
PKPLMKLRFDIEG [K5M]	0.0879
PKPLRKLRFDIEG [K5R]	-0.049
CKPLKKLRFDIEG [P1C]	0.268
PKPLPKLRFDIEG [K5P]	0.115
VKPLKKLRFDIEG [P1V]	0.147
PKPLKKLYFDIEG [R8Y]	0.129
PKPKKKLRFDIEG [L4K]	0.0222
PPPLKKLRFDIEG [K2P]	0.132
PKPLKKLRFDIEM [G13M]	0.133
PKNLKKLRFDIEG [P3N]	0.0641
PKPLKKLIFDIEG [R8I]	0.147
PKPLKKLRFDIRG [E12R]	0.0813
PKPLKWLRFDIEG [K6W]	0.114
PKPLKKLRFSIEG [D10S]	0.0311
PKPLKKLDFDIEG [R8D]	0.142
